Results from different studies.
± marks the error that the study gave. Converted amounts (≈) assume the structure as drawn.

COc1cc(-c2cnc3nc2NCCCNS(=O)(=O)c2cc(ccc2O)N3)ccc1F — result for antiviral activity: “no effect” (Dengue virus 2; viral replication, luciferase reporter; Huh-7, DENV-2-Rluc; 1, 3 or 10 µM).
With c1ccc(-c2nc(-c3ccc4ccccc4c3)c[nH]2)cc1 the worm killing was 12% (Schistosoma mansoni; adult male worms; 100 µM).
For CN(C)CCSC(=S)N1CCN(C(=O)/C=C/c2coc3ccc(F)cc3c2=O)CC1, the curative effect was 64.2 ± 6.1% (tomato spotted wilt virus; viral infection, half-leaf method; Nicotiana glutinosa; 500 µg/mL).
Oc1cc(C(F)(F)F)ccc1-c1nc2c(C(F)(F)F)cc(C(F)(F)F)cc2[nH]1 has a colistin MIC of 0.25 µg/mL (Klebsiella pneumoniae; colistin potentiator; KP C3, colistin-resistant; 5 µM).
For O=C(CCCN1C(=O)c2cccc3cccc(c23)C1=O)NO, histone acetylation read “no effect” (Cryptosporidium parvum; Western blot, item: H3K9ac; 10 µM, 90 min, sporozoites).
The protective effect of CN(C)CCSC(=S)N1CCN(C(=O)/C=C/c2coc3cc(F)ccc3c2=O)CC1 is reported as 62.7 ± 3.5% (tomato spotted wilt virus; viral infection, half-leaf method; Nicotiana glutinosa; 500 µg/mL).
The viability of CCN(CC)Cc1ccc(CNC(=O)COc2ccccc2C2SCCS2)cc1 is reported as > 1 (Zika virus MR766; ZIKV-infected Vero cells; 25 µM, 3 days, unit not given; reference: virus-infected untreated cells, above 1 protective).
For CN(C)CCn1nc(C23CC4CC(CC(C4)C2)C3)n(C)c1=S, the inhibition zone was 13 mm (Micrococcus luteus; microbial growth, disc diffusion; IFO3232; 200 µg/disc, 24 h).
With CCN(CC)CCCSC(=S)N1CCN(C(=O)/C=C/c2coc3ccc(OC)cc3c2=O)CC1 the EC50 was 154 ± 9.6 µg/mL (≈ 306 µM) (tomato spotted wilt virus; virus inactivation, half-leaf method; Nicotiana glutinosa; tested 31.25 to 500 µg/mL).
O=C1CC(c2ccc(O)cc2)Oc2cc(O)cc([O][Ga+][O]c3cc(O)cc4c3C(=O)CC(c3ccc(O)cc3)O4)c21 (stereo not drawn) — result for “bacterial load reduction”: ~3 log CFU (Pseudomonas aeruginosa; PAO1, mouse wound infection model; topical, 2 mg/kg twice daily, 48 h post-infection; reference: control group).
The curative effect of CN(C)CCCSC(=S)N1CCN(C(=O)/C=C/c2coc3ccc(F)cc3c2=O)CC1 is reported as 60.7 ± 3.5% (tomato spotted wilt virus; viral infection, half-leaf method; Nicotiana glutinosa; 500 µg/mL).
With Oc1ccc(C(F)(F)F)cc1-c1nc2c(Cl)cc(Cl)cc2[nH]1 the colistin MIC was 0.25 µg/mL (Klebsiella pneumoniae; colistin potentiator; KP C3, colistin-resistant; 5 µM).

A few entries again:
For CN(C)CCSC(=S)N1CCN(C(=O)/C=C/c2coc3ccc(F)cc3c2=O)CC1, the curative effect was 64.2 ± 6.1% (tomato spotted wilt virus; viral infection, half-leaf method; Nicotiana glutinosa; 500 µg/mL).
The viability of CCN(CC)Cc1ccc(CNC(=O)COc2ccccc2C2SCCS2)cc1 is reported as > 1 (Zika virus MR766; ZIKV-infected Vero cells; 25 µM, 3 days, unit not given; reference: virus-infected untreated cells, above 1 protective).
